Values quoted from earlier work that unrelated publications cite.
Lines come from different studies, so protocols differ. ± marks the error that the study gave.

O=C(/C=C/c1ccccc1)OCc1ccc2c(c1)OCO2
IC50 (Leishmania infantum; parasite growth): 42.8 µM

C/C(=N/NC(=O)c1cc2ccccc2n1C)c1ccccc1O
IC50 (Leishmania major; promastigotes): 1.9 µM

CCOC(=O)c1csc(N/N=C(\C)c2cc3ccccc3oc2=O)n1
IC50 (Toxoplasma gondii): 55 µM

Cc1cccnc1-n1cccc1C(=O)c1ccc(F)cc1
IC50 (Leishmania donovani; promastigotes): 7.8 µM

COCCOCCOCCOCCC(=O)NCc1cc(CNC(=O)CCOCCOCCOCCOC)cc(-c2cc3cc4nc(c(OC)c5[nH]c(cc6nc(cc2[nH]3)CC6(C)C)cc5-c2cc(CNC(=O)CCOCCOCCOCCOC)cc(CNC(=O)CCOCCOCCOCCOC)c2)CC4(C)C)c1
Qy emission FWHM (PBS; room temperature): 23 nm

CCc1ccc(-n2cc(CC3CCSCC3)cc2-c2ccc(SC)cc2)cc1
IC50 (Leishmania donovani; amastigotes): 13.8 µM

COc1cc(O)c(-c2ccc(OC)c3c(O)cc(C)c(-c4cc(-c5c(O)cc(OC)c6c5C[C@H](C)N(C)[C@@H]6C)c5cc(C)cc(OC)c5c4O)c23)c2c1[C@@H](C)N(C)[C@H](C)C2
IC50 (Trypanosoma brucei rhodesiense; STIB900; trypomastigotes): 0.005 µM

O=C(c1ccc2noc(-c3ccccc3)c2c1)N1CCCC(c2nnc3ccccn23)C1 (stereo not drawn)
IC50 (Plasmodium; parasite growth): 18.6 µM

O=c1ccn(Cc2cn(CCP(=O)(O)O)nn2)c(=O)[nH]1
IC50 (hepatitis C virus; viral replication): 16 µM

C/C=C1\NC(=O)[C@H](Cc2ccccc2)NC(=O)[C@H](C(C)C)NC(=O)[C@H](Cc2c[nH]cn2)NC(=O)[C@H](CCC(N)=O)NC(=O)[C@H](Cc2ccc3ccccc3c2)NC(=O)[C@H]2CSC[C@@H](C(=O)N[C@@H](CO)C(=O)O)NC(=O)[C@H](CSC[C@H]3NC(=O)[C@H]([C@@H](C)CC)NC(=O)[C@H](NC(=O)[C@H](Cc4c[nH]cn4)NC(=O)[C@@H](NC(=O)[C@@H](NC(=O)CNC(=O)[C@H](CO)NC(=O)CNC(=O)CNC(=O)[C@@H](N)CCCCN)C(C)C)[C@@H](C)CC)[C@H](C)SC[C@H](NC(=O)[C@H](CCC(=O)O)NC(=O)[C@H](Cc4c[nH]cn4)NC3=O)C(=O)N[C@@H](CCCNC(=N)N)C(=O)N[C@@H](CCSC)C(=O)N[C@@H](CC(N)=O)C(=O)N2)NC1=O
IC50 (Lactococcus lactis subsp. cremoris; cell growth; HP): 1.37 ± 0.048 µM

O=[N+]([O-])c1ccc(C(c2c[nH]c3ccc(I)cc23)c2c[nH]c3ccc(I)cc23)cc1
IC50 (Leishmania donovani; amastigote): < 10 µM

CC=C1NC(=O)[C@H](Cc2ccccc2)NC(=O)[C@H](C(C)C)NC(=O)[C@H](Cc2ccccc2)NC(=O)[C@H](CCC(N)=O)NC(=O)[C@H](Cc2c[nH]c3ccccc23)NC(=O)C2CSC[C@@H](C(=O)N[C@@H](CO)C(=O)O)NC(=O)[C@H](CSCC3NC(=O)[C@H]([C@@H](C)CC)NC(=O)C(NC(=O)[C@H](Cc4c[nH]cn4)NC(=O)[C@@H](NC(=O)[C@@H](NC(=O)CNC(=O)[C@H](CO)NC(=O)CNC(=O)CNC(=O)[C@@H](N)CCCCN)C(C)C)[C@@H](C)CC)C(C)SC[C@H](NC(=O)[C@H](CCC(=O)O)NC(=O)[C@H](Cc4c[nH]cn4)NC3=O)C(=O)N[C@@H](CC(N)=O)C(=O)N[C@@H](CCSC)C(=O)N[C@@H](CC(N)=O)C(=O)N2)NC1=O (stereo partly drawn)
IC50 (Lactococcus lactis; HP): 0.75 µM

O=[N+]([O-])c1ccc(/C=N/N=C/c2ccc(OCc3ccccc3)cc2)o1
IC50 (Leishmania donovani; 9515, intracellular amastigotes): 0.25 ± 0.09 µM

O=C(NO)[C@H](O)[C@H](O)COP(=O)(O)O
IC50 (Trypanosoma brucei rhodesiense; parasite growth, whole parasite): > 389 µM

CCCCCCCCCCC[C@@H](O)CC(=O)N[C@@H](CC(C)C)C(=O)N[C@H](CCC(=O)O)C(=O)N[C@H]1C(=O)N[C@H]([C@@H](C)CC)C(=O)N[C@H](CC(C)C)C(=O)N[C@H](CO)C(=O)N[C@@H](CC(C)C)C(=O)N[C@@H](CC(C)C)C(=O)N[C@H](CO)C(=O)N[C@@H](C(C)C)C(=O)O[C@@H]1C
IC50 (Chlamydomonas reinhardtii; immobilization): 4.1 µM

C/C=C(/C)C(=O)OC(C)c1cc2c(cc1OC)OC(C)(C)C=C2 (stereo not drawn)
IC50 (Leishmania donovani; axenic amastigotes): 14.6 µg/mL

O=C(c1ccc(O)c(O)c1)N1CCN(Cc2ccccc2)CC1
IC50 (Trypanosoma cruzi; Y strain, trypomastigotes): 42.5 ± 8.9 µM

CC(=O)O[C@@H]1[C@@H](OC(C)=O)C2=C(C(=O)C(O)=C(C(C)C)C2=O)[C@@]2(C)CCCC(C)(C)[C@H]12
GI50 (MOLT-3): 5 to 10 µM

CC(=O)N[C@H](CCCNC(=N)N)C(=O)N[C@H](CCCNC(=N)N)C(=O)N[C@H](CCCNC(=N)N)C(=O)N[C@H](CCCNC(=N)N)C(=O)N[C@H](CCCNC(=N)N)C(=O)N[C@H](CCCNC(=N)N)C(=O)N[C@H](CCCNC(=N)N)C(=O)N[C@H](CCCNC(=N)N)C(=O)N[C@H](CCCNC(=N)N)C(N)=O
IC50 (HIV-1; viral replication; HuT78, NL4-3): 0.003 µM

CC(=O)O[C@H]1C2=C(C(=O)C(OC(=O)c3ccc(Cl)cc3)=C(C(C)C)C2=O)[C@@]2(C)CCCC(C)(C)[C@@H]2[C@@H]1OC(=O)c1ccc(Cl)cc1
GI50 (MCF7; cell growth): > 30 µM

C/C=C1\NC(=O)[C@H](Cc2ccccc2)NC(=O)[C@H](C(C)C)NC(=O)[C@H](Cc2ccccc2)NC(=O)[C@H](CCC(N)=O)NC(=O)[C@H](Cc2c[nH]c3ccccc23)NC(=O)[C@H]2CSC[C@@H](C(=O)N[C@@H](CO)C(=O)O)NC(=O)[C@H](CSC[C@H]3NC(=O)[C@H]([C@@H](C)CC)NC(=O)[C@H](NC(=O)[C@H](Cc4c[nH]cn4)NC(=O)[C@@H](NC(=O)[C@@H](NC(=O)CNC(=O)[C@H](CO)NC(=O)CNC(=O)CNC(=O)[C@@H](N)CCCCN)C(C)C)[C@@H](C)CC)[C@H](C)SC[C@H](NC(=O)[C@H](CCC(=O)O)NC(=O)[C@H](Cc4c[nH]cn4)NC3=O)C(=O)N[C@@H](CC(N)=O)C(=O)N[C@@H](CCSC)C(=O)N[C@@H](CC(N)=O)C(=O)N2)NC1=O
IC50 (Lactococcus lactis subsp. cremoris; cell growth; HP): 0.785 µM

For quick reference, copied from above:
CC(=O)N[C@H](CCCNC(=N)N)C(=O)N[C@H](CCCNC(=N)N)C(=O)N[C@H](CCCNC(=N)N)C(=O)N[C@H](CCCNC(=N)N)C(=O)N[C@H](CCCNC(=N)N)C(=O)N[C@H](CCCNC(=N)N)C(=O)N[C@H](CCCNC(=N)N)C(=O)N[C@H](CCCNC(=N)N)C(=O)N[C@H](CCCNC(=N)N)C(N)=O
IC50 (HIV-1; viral replication; HuT78, NL4-3): 0.003 µM

CC(=O)O[C@H]1C2=C(C(=O)C(OC(=O)c3ccc(Cl)cc3)=C(C(C)C)C2=O)[C@@]2(C)CCCC(C)(C)[C@@H]2[C@@H]1OC(=O)c1ccc(Cl)cc1
GI50 (MCF7; cell growth): > 30 µM
